{"data": "Results from different studies", "note": "Parts stem from different laboratories: compare values within a part only. Substitutions count along the parent as printed."}
{"data": "Series 1", "target": "CCNE2, cyclin fold, Cln2 fusion (human)", "method": "yeast growth competition, sequencing", "sample": "yeast", "notes": "weak parent motif", "relative to": "not given", "reading": "higher = stronger binding", "starting sequence": "ORC1 docking peptide (human); PRARKRLELGNLG"}
{"Change": "P1L", "normalised enrichment score": 0.156}
{"Change": "R6K", "normalised enrichment score": -0.227}
{"Change": "R6T", "normalised enrichment score": 0.537}
{"Change": "A3G", "normalised enrichment score": -0.861}
{"Change": "E8Q", "normalised enrichment score": 1.54}
{"Change": "L7E", "normalised enrichment score": 0.266}
{"Change": "N11I", "normalised enrichment score": -0.0748}
{"data": "Series 2", "target": "RNA binding protein fox-1 homolog 2, RRM domain, GST-SBP tag (RBFOX2, Homo sapiens, UniProt O43251-10, residues 100-194)", "method": "RNA Bind-n-Seq", "form": "RNA", "sample": "in vitro", "tested at": "365 nM", "notes": "natural RNA segment, single round, ends assumed", "relative to": "no-protein control", "reading": "higher = stronger binding", "shared flanks, not repeated": "GGGAGUUCUACAGUCCGACGAUC … UGGAAUUCUCGGGUGCCAA", "Target sequence (chain)": "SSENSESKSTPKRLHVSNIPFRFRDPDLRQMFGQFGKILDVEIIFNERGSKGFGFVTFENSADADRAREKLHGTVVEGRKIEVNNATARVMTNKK"}
{"Strand": "GAGAUGCCCUGAGAGGGAGAGGAGGAAGCCAGAGUUGCUGUCAUCUGUGUCCCUGUCUUAGUCAGAACCUCUGUCCUUUCCUCACCAACUAACAUGUGCCAGCCAGGCAG", "RBNS enrichment (R)": 0.782}
{"Strand": "AAGGAAAAAUCUGAGGAAACCCUUAUAUUUUCCAACAGGGUUCCUCUGUGUAGCUUUGCUUAUCCUGGAACUCGAUUUGUUGACCAGGCUGGCCUUGAAUUCUCAAAAAU", "RBNS enrichment (R)": 0.354}
{"Strand": "UAAAGCAAAAGUCACCUAUACCGUAAUAGAAAUGUUGCUAUCUCUAUACAAGUGCACUUUGAUCUGUAAAUAGUUCUAAUCAAAGCAUAACAAAACACUGCUUCAAGAUU", "RBNS enrichment (R)": 0.306}
{"Strand": "CUGUGGCUCCCUCUCUCCUGGACUGGUUAUCUUGUUAUUAUUGUUAAUAAUAAUUAUUAUUAUUAUUUUCCUUCCAUGCUCCCAACUCCCUUCUGCUUGUCCCAAAUCCG", "RBNS enrichment (R)": 2.87}
{"Strand": "CUUUAACAAAGACUCAAGAUCAAAUUUCUUACCUAAAAGUUUAGGUUAACUGUUGACUCCUCAAGGGUUUUGAUCAAUAUCACCCAAACCUUUUCCACUUGACAUGCUAG", "RBNS enrichment (R)": 0.482}
{"Strand": "GGGGGCGCCCUGUAUUUUGGGGGCCUCUUCCAGGCACCCACAGCCCUGACGGAGCCCCUGGAGGUGGAGCACGUGGUGGGCCAGGGUGUCCUCCACCGUGGCGGCCAGCU", "RBNS enrichment (R)": 0.495}
{"Strand": "GAUAUGAAGACCUCGUUCAACUUUGCAUAACACGUAGAGGUAAUAGCUAGGUGAUAGACAUUUUCAAAAAUUGCCUGACUGGCCAAGUUACAAGGAUGCCUCUCCACACU", "RBNS enrichment (R)": 0.274}
{"Strand": "GAACUUGUAGCUUGGACUUUAAGGUAGCAUGGCUCUAUUGCUGUCAAUUUACUGUUUCACUGCACAGCAAUCACAGCCAGUGAAUGUUACACACAUCUUGCUAGACUAGU", "RBNS enrichment (R)": 0.51}
{"data": "Series 3", "target": "Sal-like protein 4, full length isoform B (SALL4, Homo sapiens, UniProt Q9UJQ4-2, residues 1-616)", "method": "universal PBM", "form": "double-stranded DNA, one strand shown", "sample": "in vitro", "tested at": "not given", "notes": "8-mer, flanks averaged, mean of replicates", "reading": "higher = stronger binding"}
{"Strand": "CTATGATC", "E-score": 0.126}
{"Strand": "GCTGAGTA", "E-score": -0.0759}
{"Strand": "AACTCTCG", "E-score": -0.155}
{"Strand": "GTGAAAGA", "E-score": 0.187}
{"Strand": "ACGCGTCA", "E-score": 0.0848}
{"Strand": "CCCTGTTC", "E-score": -0.313}
{"Strand": "CAGTAATA", "E-score": 0.362}
{"Strand": "ACCGAAGG", "E-score": -0.0621}
{"Strand": "ATCACACA", "E-score": 0.181}
{"Strand": "TCACTAAA", "E-score": 0.0179}
{"Strand": "ACCCGTAA", "E-score": -0.0193}
{"Strand": "AATCCTCT", "E-score": -0.00972}
{"data": "Other studies, line by line"}
{"Molecule": "PhoQ, residues 284 288 289 292 302 303 NLMGRA", "target": "PhoP, residues 12 14 15 18 19 QWHVF (Escherichia coli, UniProt P23836)", "assay": "Sort-seq, measured: YFP reporter", "system": "E. coli", "conditions": "PhoQ-PhoP variant library, added: 10 µM Mg2+", "how to read": "relative to: high Mg2+ state, higher = stronger signaling", "measurement": "fold induction", "value": 4.57}
{"note": "A few entries again (other studies, line by line):"}
{"Molecule": "PhoQ, residues 284 288 289 292 302 303 NLMGRA", "target": "PhoP, residues 12 14 15 18 19 QWHVF (Escherichia coli, UniProt P23836)", "assay": "Sort-seq, measured: YFP reporter", "system": "E. coli", "conditions": "PhoQ-PhoP variant library, added: 10 µM Mg2+", "how to read": "relative to: high Mg2+ state, higher = stronger signaling", "measurement": "fold induction", "value": 4.57}
